# Published values collected from several papers.
# Each numbered part is a random draw from the data of one study; scales do not carry over between parts. Changes are numbered by the printed parent chain.

# Set 1 — technique: competition protein-binding microarray; form: double-stranded DNA, one strand shown; medium: in vitro; tested at: 2 µM; added: Pho4 competitor, 0.05 µM; direction: higher = stronger binding
# Target: Centromere-binding protein 1, full length, His-tagged (CBF1, Saccharomyces cerevisiae, UniProt P17106, residues 1-351)
# Sequence of UniProt P17106 (whole entry, looked up): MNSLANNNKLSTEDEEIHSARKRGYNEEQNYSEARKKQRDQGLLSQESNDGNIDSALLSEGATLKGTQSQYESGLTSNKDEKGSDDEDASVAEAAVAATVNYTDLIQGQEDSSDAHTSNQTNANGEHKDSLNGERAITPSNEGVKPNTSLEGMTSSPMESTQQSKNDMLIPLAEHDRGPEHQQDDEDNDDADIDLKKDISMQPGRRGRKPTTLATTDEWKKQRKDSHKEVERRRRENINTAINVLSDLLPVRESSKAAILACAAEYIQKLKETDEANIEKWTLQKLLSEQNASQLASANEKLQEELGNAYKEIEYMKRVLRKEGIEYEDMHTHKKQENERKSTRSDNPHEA
# Notes: whole 60-bp probe, lowest competitor level
Oligonucleotide,fluorescence intensity [a.u.]
GGAGAAGGTATTGATAACCTGCGGGACCGTCTGGTGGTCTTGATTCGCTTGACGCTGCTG,63
CGTCCTAGTGATTTACACGTGTTTTCCATGAGGAAGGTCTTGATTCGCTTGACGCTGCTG,1340
AAATTACTAAGTTGTTACGTGGGTGACGCCGTATGAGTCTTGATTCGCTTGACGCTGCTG,60.2
CTATGATCTTGTATTCATGTGATTGTAAATAATATTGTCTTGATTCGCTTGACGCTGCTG,691
CTTCTGTAAATTTGTAGTGTGGGTGGACGCGCCCCGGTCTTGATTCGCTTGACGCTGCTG,83.7
ACAGCAAGCAACCATCACGTGCTAAATCGCAAACTTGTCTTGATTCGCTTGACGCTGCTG,4420
ATCCCTTGCCCAAAGGGCGTGCAAACCGAGTCTAGCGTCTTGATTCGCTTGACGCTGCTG,67.3
CGTCTCCCGCAAAGCCACGCGCCAGCTGACTGGCTCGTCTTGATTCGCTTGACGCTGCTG,69.7
CGTCCTAGTGATTGTCACATTACTTCCATGAGGAAGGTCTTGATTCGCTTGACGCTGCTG,123
ATGGCTACTTTTATCCCCGTGACGAAATCTATCACTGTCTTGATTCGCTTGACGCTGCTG,617
ATTTGGCGAACTGTGAACGTGCGGAGGGCAGAATCCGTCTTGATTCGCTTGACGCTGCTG,82.5
GGTGGTTATGGCTGGGTCGTGACGAACTGTGTGTTCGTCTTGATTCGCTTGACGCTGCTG,109
CTTTCCCGATCTTGTCACCTTACTTTAGCACATTTGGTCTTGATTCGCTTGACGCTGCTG,81.5
CGGGGTTAAGTTTGTTGCGTGGGTGGCTTGCAGCAGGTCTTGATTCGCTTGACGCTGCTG,87.8
TTGGACAAGCTGGCACACCTGATCGACGAGACACCGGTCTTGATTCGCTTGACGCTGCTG,96.4
GATTATTGGCTAAGTACCGTGATGGTGGTAAGATTGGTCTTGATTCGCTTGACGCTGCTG,116
CATACCCAACCTTGGGAAGTGGGTGAAGATATTTGTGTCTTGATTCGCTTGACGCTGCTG,76.9

# Set 2 — technique: universal PBM; form: double-stranded DNA, one strand shown; medium: in vitro; tested at: not given; direction: higher = stronger binding
# Target: Sal-like protein 4, full length isoform B (SALL4, Homo sapiens, UniProt Q9UJQ4-2, residues 1-616)
# Notes: 8-mer, flanks averaged, mean of replicates
# Target sequence (chain): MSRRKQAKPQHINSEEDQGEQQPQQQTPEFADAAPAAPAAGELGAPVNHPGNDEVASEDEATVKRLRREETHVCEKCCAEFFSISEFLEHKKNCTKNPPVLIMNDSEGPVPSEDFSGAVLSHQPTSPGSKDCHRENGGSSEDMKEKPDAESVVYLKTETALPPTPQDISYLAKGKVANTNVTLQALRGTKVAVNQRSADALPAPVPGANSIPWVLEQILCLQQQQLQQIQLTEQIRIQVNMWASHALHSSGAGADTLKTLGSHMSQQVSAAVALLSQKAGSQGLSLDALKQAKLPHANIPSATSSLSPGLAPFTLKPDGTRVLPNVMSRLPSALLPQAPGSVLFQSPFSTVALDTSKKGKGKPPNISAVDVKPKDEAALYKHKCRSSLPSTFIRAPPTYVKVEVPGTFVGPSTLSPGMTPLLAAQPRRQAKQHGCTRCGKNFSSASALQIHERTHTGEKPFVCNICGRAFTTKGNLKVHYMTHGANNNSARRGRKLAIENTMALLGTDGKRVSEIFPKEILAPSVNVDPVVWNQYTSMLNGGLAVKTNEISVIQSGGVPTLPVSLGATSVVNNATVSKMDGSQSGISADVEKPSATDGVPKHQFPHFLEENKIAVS
Oligonucleotide,E-score
ACCGACTC,-0.155
GCCGCTCC,-0.291
GAGAATTA,0.246
CGGAAGGA,-0.161
CGTATTAA,0.229
CCAATTTA,0.244
ATTGTAGA,0.25
ATTTGAGG,0.0784
ACCGCTTG,-0.152
AATACGCC,0.0938
CAAGGTAA,-0.0306
AATCGCCG,-0.152
ACCAACTA,0.162
CAACAGTG,-0.0438
ACCCTTGG,-0.222
CATGGTGA,0.0279
AGCGCTAG,-0.169
GAGATTTA,0.128
AAACGTCC,0.0326
CGCTCCAG,-0.0932
CATAATGC,0.279
CCCCTCCA,-0.149
GAGGCTAA,0.0641
AGTCATAA,0.35

# Set 3 — technique: protein-binding microarray; form: double-stranded DNA, one strand shown; medium: in vitro; tested at: 940 nM top; notes: 60-bp whole probe; added: salmon DNA 0.4 mg/ml; baseline: random background probes; direction: higher = stronger binding; all sequences stand within: GCCTAGCAC … GTCTTGATTCGCTTGACGCTGCTG
# Target: Interferon regulatory factor 5, full length, phosphomimetic (IRF5, Homo sapiens, UniProt Q13568-2, residues 1-514, S451D/S453D/S456D/S462D)
Oligonucleotide,fitted relative affinity [z-score]
GGCCCTTTGCTTTCCTGATGGTGCTAG,0.124
GACGAACTAGGGTATCGAGACGTGCTA,0.101
TCAGCTCTTGTTTTCACACTGTGCTAG,0.822
GACGGTTCCGGTTTCGAGACGTGCTAG,5.12
TTGGGACTGCTTTTCCTTTAGTGCTAG,-0.49
TCAATTTTCCAAATGCCACTGTGCTAG,0.232
TCAGATATCGGGTTTCGATTAGTGCTA,5.57
GACGATTTCGGGAATGGAGACGTGCTA,0.0921
TTAGGCATCGACTATCGGTTAGTGCTA,-0.0584
TTAGATCTCGGTTTCGATTAGTGCTAG,7.97
TCAACTAGCGGGTCTTGCACTGTGCTA,-0.0571
TCATTTTTACTTTCTGAACTGTGCTAG,1.8
GACCGTCTCCTACTGCTGACGTGCTAG,0.0554
TGCTGGTTTTGTGGTCTAATGTGCTAG,0.371
CTCTCTTCACATATAATTTTGTGCTAG,1.31
TTAGAACTGAGTATCGATTGGTGCTAG,4.31
GTCGGACTGGGTATCGGGACGTGCTAG,1.24
TCAGTCCTGGCTTTGACACTGTGCTAG,-0.407
GACGATCTCACACTGGAGACGTGCTAG,-0.0439
TTAGGTGTCCTTTCCCTTTAGTGCTAG,0.214
GACCGTTTCCTTTCCCTGACGTGCTAG,1.79
GACGAACTGAGATTCGAGACGTGCTAG,-0.498
CTTAGTATTTTTTTCCAGAGGTGCTAG,1.17
TTAGGTTTCGGGTTTCGGATAGTGCTA,10.6

# Set 4 — technique: DHFR PCA, deep sequencing; medium: yeast; added: (+)-ABA 4.8 µM; baseline: wild-type fitted maximum; direction: higher = stronger binding
# Target: ABI1, truncated, D143A, DHFR fusion (Arabidopsis thaliana)
# Notes: methotrexate growth selection, single substitutions
# Starting sequence: PYL1, truncated, DHFR fusion (Arabidopsis thaliana); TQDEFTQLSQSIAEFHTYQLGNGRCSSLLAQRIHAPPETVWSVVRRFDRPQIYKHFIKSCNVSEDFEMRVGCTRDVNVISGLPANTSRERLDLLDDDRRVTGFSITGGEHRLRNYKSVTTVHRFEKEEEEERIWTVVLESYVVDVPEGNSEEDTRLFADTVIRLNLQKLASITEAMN
Substitution,relative binding score [%]
S26N,41.2
D3N,58.2
R90Y,-4.85
S87K,-7.92
V121T,-6.19
D144K,-3.34
E109D,114
R111G,5.16
E151M,61.5
T106F,73.6
R46T,23.7
E131Y,56.3

# Set 5 — target: CCND3, cyclin fold, Cln2 fusion (human); technique: yeast growth competition, sequencing; medium: yeast; notes: weak parent motif; baseline: not given; direction: higher = stronger binding
# Starting sequence: CABLES2 docking peptide (human); ICAKRSLCAAFSV
Substitution,normalised enrichment score
R5A,-0.0447
F11A,0.127
S6A,0.506
C2A,-0.26
C8A,-0.0337

# Set 6 — target: UBE2J2 UBC core domain (UniProt Q8N2K1); technique: yeast two-hybrid; medium: yeast; notes: mostly zero background; baseline: not given; direction: higher = stronger interaction
# B1: CUL9 RING domain (UniProt Q8IWT3); chain AQAVPVRPDHCPVCVSPLGCDDDLPSLCCMHYCCKSCWNEYLTTRIEQNLVLNCTCPIADCPAQPTGAFIR
# B2: RNF170 RING domain (UniProt Q96K19); chain TRQQFYTDMYCPICLHQASFPVETNCGHLFCGACIIAYWRYGSWLGAISCPICRQTVTLLLTVF
# B3: ZNF598 RING domain (UniProt Q86UK7); chain AAAPERGGGSCVLCCGDLEATALGRCDHPVCYRCSTKMRVLCEQRYCAVCREELRQVVFGK
# B4: TRIM63 RING domain (UniProt Q969Q1); chain PMENLEKQLICPICLEMFTKPVVILPCQHNLCRKCANDIFQAANPYWTSRGSSVSMSGGRFRCPTCRHEVIMDRHGV
# B5: RC3H2 RING domain (UniProt Q9HBD1); chain QAAQWTEFLSCPICYNEFDENVHKPISLGCSHTVCKTCLNKLHRKACPFDQTAINTDIDVL
# Construct (chain): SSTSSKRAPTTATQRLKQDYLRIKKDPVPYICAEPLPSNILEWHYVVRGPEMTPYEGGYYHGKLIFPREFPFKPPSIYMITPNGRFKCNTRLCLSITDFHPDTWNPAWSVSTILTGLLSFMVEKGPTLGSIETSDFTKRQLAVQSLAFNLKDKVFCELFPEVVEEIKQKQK
Sequence,lacZ reporter activity
PEELQAMDNVCIICREEMVTGAKRLPCNHIFHTSCLRSWFQRQQTCPTCRMDVLRASLPA (SYVN1 RING domain (UniProt Q86TM6)),2640
B1 (CUL9 RING domain),0
B2 (RNF170 RING domain),0
EDEVSDNSAECVVCLSDVRDTLILPCRHLCLCNTCADTLRYQANNCPICRLPFRALLQIR (RNF157 RING domain (UniProt Q96PX1)),0
B3 (ZNF598 RING domain),0
KTLSRFGIQPCSICLGDAKDPVCLPCDHVHCLRCLRAWFASEQMICPYCLTALPDEFSPA (RNF213 RING domain (UniProt Q63HN8)),0
B4 (TRIM63 RING domain),3110
FASPPDSNFVCSVCHGVLKRPARLPCSHIFCKKCILRWLARQKTCPCCRKEVKRKKVVH (RNF151 RING domain (UniProt Q2KHN1)),0
B5 (RC3H2 RING domain),0
YWAMDSTFELCKICAESNKDVKIEPCGHLLCSCCLAAWQHSDSQTCPFCRCEIKGWEAVS (CBLC RING domain (UniProt Q9ULV8)),0

# Excerpt of the above (set 2):
Oligonucleotide,E-score
GCCGCTCC,-0.291
GAGAATTA,0.246
CGGAAGGA,-0.161
CGTATTAA,0.229
CCAATTTA,0.244
ATTGTAGA,0.25
ATTTGAGG,0.0784
ACCGCTTG,-0.152
AATACGCC,0.0938
